Results of several laboratories.
Each line is one published result; not all experiments were run side by side.
MET: Hepatocyte growth factor receptor (MET, Homo sapiens, UniProt P08581)

Compound | target | test | setting | how to read | quantity | result
CS(C)(=O)=Nc1ccc(-c2ccc(-c3nc4cc(O[C@@H]5CO[C@H]6[C@@H]5OC[C@H]6O)[nH]c4cc3F)cc2)cc1 | MET (Homo sapiens, UniProt P08581, D1228N) | enzyme activity, inhibitor | 10 µM |  | inhibition | -23%
CC(C)[C@H]1NC(=O)C[C@H]2/C=C/CCSSC[C@@H](NC1=O)C(=O)N[C@H](Cc1cccc3ccccc13)C(=O)NCC(=O)O2 | MET (Homo sapiens, UniProt P08581, M1250T) | enzyme activity, inhibitor | 10 µM |  | inhibition | -2.7%
N[C@H](C(=O)N1CCCC1)C1CCN(c2nccc3c(-c4ncc(Cl)cc4Cl)cccc23)CC1 | MET | kinase activity, inhibitor | 10 µM, added: ATP 1 mM |  | inhibition | 2.2%
Nc1ccc(/C=C/C(=O)N2CCc3c(oc4c(-c5ccc(F)cc5)cc(-c5ccc(C(=O)N6CCC(F)(F)CC6)cn5)cc34)C2)cn1 | MET | binding, competition with immobilised ligand | 1 µM |  | remaining binding | 100%
O=C1NC(=O)c2c1c1cc(F)c[n+]3c1c1c2c2cc(O)ccc2[n]1[Ru-4]312([N]=C=S)[S+]3CC[S+]1CC[S+]2CC3 (stereo not drawn) | MET | enzyme activity | 100 nM, human enzyme, added: 10 µM ATP | baseline: untreated | remaining activity | 91%
CCOC(=O)[C@@H]1Cc2c(cc([N+](=O)[O-])cc2[N+](=O)[O-])[C@H](O)[C@]12C(=O)Nc1ccc(Br)cc12 | MET | KINOMEscan | 100 nM | baseline: DMSO control | remaining binding | 57%
O=C(O)c1ccccc1/C=N/Nc1nc(-c2ccccc2Cl)cs1 | MET | enzyme activity, inhibitor | 1 µM |  | inhibition | -8.5%
C[C@H](NCc1ccc(-c2ccc(C(F)(F)F)cc2)cc1)C(N)=O | MET | cell-free assay, competition with immobilised ligand | 1 µM |  | inhibition | 4%
O=C(CN1CN(c2ccccc2)C2(CCN(C(=O)c3cnc4[nH]ncc4c3)CC2)C1=O)NCC(F)(F)F | MET | inhibitor | concentration not given |  | inhibition | < 50%

Excerpt of the above:
Compound | target | test | setting | how to read | quantity | result
O=C(CN1CN(c2ccccc2)C2(CCN(C(=O)c3cnc4[nH]ncc4c3)CC2)C1=O)NCC(F)(F)F | MET | inhibitor | concentration not given |  | inhibition | < 50%
